Results pooled from the literature.
Every numbered part comes from another study and shows a few of its results, in no order. Changes are numbered by the printed parent chain.

Set 1 — technique: RNA Bind-n-Seq; molecule type: RNA; medium: in vitro; concentration: not given; relative to: input RNA pool; reading: higher = stronger binding
Target: RING finger protein unkempt homolog, zinc fingers 1-6, GST-SBP tag (UNK, Homo sapiens, UniProt Q9C0B0, residues 30-357)
Chain of UniProt Q9C0B0 (30-357, looked up): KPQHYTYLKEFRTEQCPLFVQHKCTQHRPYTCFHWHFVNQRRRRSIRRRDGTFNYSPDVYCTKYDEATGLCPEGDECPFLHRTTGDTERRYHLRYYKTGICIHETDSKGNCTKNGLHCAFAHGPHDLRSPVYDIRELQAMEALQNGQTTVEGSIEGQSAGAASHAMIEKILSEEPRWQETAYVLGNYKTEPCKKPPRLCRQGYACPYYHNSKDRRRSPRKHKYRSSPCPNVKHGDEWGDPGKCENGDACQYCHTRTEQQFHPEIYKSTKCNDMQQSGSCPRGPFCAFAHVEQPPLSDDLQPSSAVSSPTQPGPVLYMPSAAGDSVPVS
Setting: RNA with constant flanks, human and mouse sites, ends assumed
Shared flanks, not repeated: GGGAGUUCUACAGUCCGACGAUC … CAACAGAGGAUUGAGCAUCA
`UCAGAAAGUGCUACAUCUGUCCCACCCUCUGACACACCUUCUCUCACAUCAUCUGUUUCUUCGGUCUGUACCACAGAUAGCUCUUCACCCAUUACUACCCUGGAUAGCAUAACCACAGUU` gave a bound/input enrichment of 0.544 ratio.
`GAUGUUGAGAGUUUGGACAAACUCAUGAAAACCAAAAAUAUACCUGAAGCUCACCAAGAUGCAUUUAAAACUGGUUUUGCGGAAGGUUUUCUGAAAGCUCAAGCACUCACACAAAAAACC` gave a bound/input enrichment of 0.19 ratio.
`AAGAAGUCUCAGUAGUAAUCUUGUUCAUGUGCUUUUACAGCCAGCUACAUUUAAGAAUGUAUUAGUUACAGAAAUUAUAUGUCUGUGUAUGUGUCUCUACUCAAUAAAGUACAUGCCUCC` has a bound/input enrichment of 6.36 ratio.
For `GACUAUCUCCCAGAUGCCGGCAUUACAGGUAUUUGCCACCACACCCAGCUAAGAAGUUCUCUCUUUUUUUCUCUUCUCUCUUCUCUUUCCCUCCCUUCCUCCUUCCCUCUAAAAUUAACG`, the bound/input enrichment was 1.32 ratio.
For `GGUCCUGGCCCCUUACAAGAGAGAUCUCUCUUUGAGAAAAAGAGAGGCGCUCCUCCAAGUAGCAAUAUUGAAGACUUCCAUGGACUCUUACCGAAGGGUUAUCCCCAUCUGUGCUCUAUA`, the bound/input enrichment was 0.214 ratio.
With `GUUACAAAAGCCUCCCAUCGCUUGUGCCCUUACGGAUCGCAGCAUUGAAUGCUCUCGCUGCCUGCAAUUACCUACCUCAGUCCAGGGAGAAAAUCAUUGCUGCUCUUUUCAAAGCCCUCA` the bound/input enrichment was 0.113 ratio.
`UUUGGCUGGGACAAGGUUGAAAGGAGCUUUGCUGACUGUUUUGUUUUCCCAUCACAUUGACACUUUAUUCAAUAAGUAAAACUCAUUACAGUUCCGAGCCGUGCUGGAGGCCUCUGCUUG` gave a bound/input enrichment of 0.202 ratio.
The bound/input enrichment of `CCACCACCAGUGGUUCUCCAGAGCCUAAAUGGAAUACUUAAAACACACUGCUGAGUUGUAUAGUUUCUUUUUCUUUUAUAUAUAUAUAUAUGUGUAUAUGUAACAAAGCAUUAUUCAGGU` is reported as 0.588 ratio.

Set 2 — target: CCND2, cyclin fold, Cln2 fusion (human); technique: yeast growth competition, sequencing; medium: yeast; setting: weak parent motif; relative to: not given; reading: higher = stronger binding
Starting sequence: viral docking peptide; PGASRRLFGSSAD; partner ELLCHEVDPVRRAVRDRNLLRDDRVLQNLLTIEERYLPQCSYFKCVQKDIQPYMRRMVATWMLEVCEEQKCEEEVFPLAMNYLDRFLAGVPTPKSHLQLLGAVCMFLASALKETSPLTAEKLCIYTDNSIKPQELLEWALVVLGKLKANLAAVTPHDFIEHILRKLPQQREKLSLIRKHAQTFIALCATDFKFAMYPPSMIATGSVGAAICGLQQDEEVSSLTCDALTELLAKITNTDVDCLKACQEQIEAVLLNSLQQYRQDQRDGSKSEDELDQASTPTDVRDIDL
For `PGASRRLFASSAD [G9A]`, “normalised enrichment score” read 0.405.
For `PGASRRLFGASAD [S10A]`, “normalised enrichment score” read -0.162.
`PGAARRLFGSSAD [S4A]` — result for “normalised enrichment score”: 0.133.
`PGASRALFGSSAD [R6A]` — result for “normalised enrichment score”: 0.158.
`PGASRRLFGSSAA [D13A]` — result for “normalised enrichment score”: 0.153.
For `PGASKRLFGSSAD [R5K]`, “normalised enrichment score” read -0.0679.

Set 3 — technique: EMSA with sequencing; molecule type: double-stranded DNA, one strand shown; medium: in vitro; concentration: 10 and 20 nM; relative to: negative control set to 0; reading: higher = stronger binding
Target: Hepatocyte nuclear factor 3-alpha (Foxa1, Mus musculus, UniProt P35582, residues 1-468, full length assumed)
Setting: whole designed probe, mean of two concentrations, ends assumed
Shared flanks, not repeated: GTGAGCGGTGCCCATTGATGGGGAAC … TTTCACTGGGATCGTGGGGAC
Target sequence (chain): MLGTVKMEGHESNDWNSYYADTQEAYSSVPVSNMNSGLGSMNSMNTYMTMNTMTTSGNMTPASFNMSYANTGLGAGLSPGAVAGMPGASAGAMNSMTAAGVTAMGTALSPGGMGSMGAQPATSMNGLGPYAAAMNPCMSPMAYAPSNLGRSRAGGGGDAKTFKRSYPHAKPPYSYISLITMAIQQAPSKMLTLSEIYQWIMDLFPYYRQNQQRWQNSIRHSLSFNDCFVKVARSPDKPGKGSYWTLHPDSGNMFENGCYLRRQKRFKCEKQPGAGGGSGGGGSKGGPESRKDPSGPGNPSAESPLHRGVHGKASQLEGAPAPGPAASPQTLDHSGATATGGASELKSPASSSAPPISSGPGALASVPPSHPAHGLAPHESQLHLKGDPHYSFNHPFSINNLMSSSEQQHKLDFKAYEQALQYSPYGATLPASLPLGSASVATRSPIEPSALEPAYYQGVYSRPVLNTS
For `ATCTTCCCCCTCTTCCTTGCCCCACCAGCTCACCTTCCCGGGTTATTTGCACAAAGGAAAATAAATAAAGCCGGCATTCGTTAACGCAGTTCACGCGCATACTGCTGTTTGCTCTGGATGAATCATGGTCCTTTGGCGAGGCGTGGCTCCGGGAGAGCAAAGCACCGTGTCAGGGCCATGATCCGGGCTCGCC`, “normalised bound fraction” read 0.37 ratio.
`CCCTCATCCTGGGTGTCGGGGTGGGAGGTGTTCTCATCATGAATGGGAGGCGTACCCAGATCCAGCTCTGCCTTTTTTTAACCAAACCACATTTGTTTACACTCGCTGTTAATCGAGTGACTCACCACATAGCAAGATATGATACATGCCAGGAGAGAAAAAGAAAGTGCTGATGGAAAAATAATCTCATTAG`: “normalised bound fraction” 0.308 ratio.
`CACTCAACAGAAGGTTCTTCAATCCTCAAACTTTATCCAGTGAAAGCACTAATCCTGATATTTCTCTAGTTTCTTTGATGGCATGACCCCTTGTGTAAATATTGATAGAGATTACACTGACAGTTGTGTAAGCCAGCTGGATCCCAGCCAGGGACAAAGGAATTTATAAAAGGCCAGGAATAGAGAATCCAAG` — result for “normalised bound fraction”: 0.48 ratio.
`CTCATTCCTTGCTTCCGCCAATAATCTGACTAGTAAAGAAGTCACTGCATGCCACAAATTGTCAGTGCTGACTTCCTCAACAAGGAAGTATAAGTAAATAAATATTAATATATATGCAAATTCCGAGTGACTCAGATCTTGAGAATACCAACTCCTGATGCCAACTGATTGTCAGTCATGGCTACAACAGGAG`: “normalised bound fraction” 0.4 ratio.
`TTTCCAGCCCTTAGTTTCTGGCATTTAACCTGACTCTGGTCCCTGAATGGCATGGGAGTGCTTTCAACCACAGGTTTCCACATTCATGCCACTTGTTTGCTTTTTGATCTACAGAGATCTTTATCTGACTCATTCTTGCTTTGTGTTTCCAATGGAGAAAGAGCTTGGGAAGGGAGGATCCTAATTGTCTAAA`: “normalised bound fraction” 0.287 ratio.

Set 4 — technique: protein-binding microarray; molecule type: double-stranded DNA, one strand shown; medium: in vitro; concentration: 250 nM; setting: 60-bp whole probe; with: salmon DNA 0.4 mg/ml; relative to: random background probes; reading: higher = stronger binding; shared flanks, not repeated: GCCTAGCAC … GTCTTGATTCGCTTGACGCTGCTG
Target: Interferon regulatory factor 7, full length, phosphomimetic (IRF7, Homo sapiens, UniProt Q92985, residues 1-503, S101K/S471D/S472D/S475D/S476D/S477D/S483D/S484D/S487D)
Chain of UniProt Q92985 (whole entry, unmodified, looked up): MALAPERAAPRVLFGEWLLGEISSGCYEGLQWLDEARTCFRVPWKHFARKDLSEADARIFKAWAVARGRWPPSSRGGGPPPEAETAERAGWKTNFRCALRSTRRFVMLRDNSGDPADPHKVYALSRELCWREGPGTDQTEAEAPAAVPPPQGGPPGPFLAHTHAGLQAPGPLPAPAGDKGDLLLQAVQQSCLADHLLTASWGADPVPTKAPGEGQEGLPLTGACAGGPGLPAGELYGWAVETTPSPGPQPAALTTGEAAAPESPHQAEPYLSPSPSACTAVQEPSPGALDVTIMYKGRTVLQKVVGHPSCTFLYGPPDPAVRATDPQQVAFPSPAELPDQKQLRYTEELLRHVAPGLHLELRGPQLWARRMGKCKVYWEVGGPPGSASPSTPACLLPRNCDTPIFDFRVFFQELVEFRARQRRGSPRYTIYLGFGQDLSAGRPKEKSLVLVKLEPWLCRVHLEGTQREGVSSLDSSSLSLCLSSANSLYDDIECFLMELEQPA
With `GCCTTTATATACCTGAATATGTGCTAG` the log fluorescence was 1.17 z-score.
`GACCCTGGACACTTCACGTAGTGCTAG` has a log fluorescence of -0.0718 z-score.
For `GACGGTTTAGACTTTCGGGACGTGCTA`, the log fluorescence was 0.197 z-score.
The log fluorescence of `GACGGTCTCGGACCGGGGACGTGCTAG` is reported as -0.023 z-score.
`GAAGGTCTCGGACTGGGGACGTGCTAG` gave a log fluorescence of -0.188 z-score.
`CTGAGAATGGGGTTTGCAGCCGTGCTA` has a log fluorescence of -1.02 z-score.
With `TTAGGTTCCCTTTTCCTTTCGTGCTAG` the log fluorescence was 4.43 z-score.
`TTAGGTCTCCTCATCCTTTAGTGCTAG` gave a log fluorescence of 0.0483 z-score.

Excerpt of the above (set 4):
`GAAGGTCTCGGACTGGGGACGTGCTAG` gave a log fluorescence of -0.188 z-score.
`TTAGGTCTCCTCATCCTTTAGTGCTAG` gave a log fluorescence of 0.0483 z-score.
The log fluorescence of `GACGGTCTCGGACCGGGGACGTGCTAG` is reported as -0.023 z-score.
